Experimental data of several laboratories.
Each line is one published result; not all experiments were run side by side.
Medium: plasma

With `COC1C=COC2(C)Oc3c(C)c(O)c4c(c3C2=O)C2=NC3(CCN(CC(C)C)CC3)NC2=C(NC(=O)C(C)=CC=CC(C)C(O)C(C)C(O)C(C)C(OC(=O)Nc2cscn2)C1C)C4=O` (stereo not drawn) the AUC was 35700 ng·h/mL (female CD-1 mouse; oral, 10 mg/kg).
`CC(C)(O)c1ccc(N2Cc3c(ccnc3-c3ccc(F)cc3OCC(F)(F)F)C2=O)cc1` has an AUC of 38000 ng·h/mL (male C57BL/6 mouse; oral, 10 mg/kg, single dose).
The AUC of `CCc1nc(N)nc(N)c1C#C[C@H](C)c1cc(-c2ccncc2)ccc1OC` is reported as 4900 ng·h/mL (mouse; intraperitoneal, 16 mg/kg, single dose).
For `CC(C)(C)OC(=O)N[C@H](Cc1ccccc1)[C@@H](O)CN1CCC(N2CCCCC2)CC1`, the AUC was 500 ng·h/mL (Swiss mouse; subcutaneous, 20 mg/kg, single dose).
The AUC of `COC1C=COC2(C)Oc3c(C)c(O)c4c(c3C2=O)C2=NC3(CCN(CC(C)C)CC3)NC2=C(NC(=O)C(C)=CC=CC(C)C(O)C(C)C(O)C(C)C(OC(=O)c2cccnc2)C1C)C4=O` (stereo not drawn) is reported as 43900 ng·h/mL (female CD-1 mouse; oral, 10 mg/kg).
With `COc1cc(OC)c(F)c(/C=C/c2cnc3ccn(S(=O)(=O)c4cn(CCF)cn4)c3n2)c1F` the AUC was 434 ng·h/mL (CD-1 mouse; oral, 10 mg/kg).
`CN(C)CCNC(=O)/C=C/[C@H](Cc1ccccc1)Nc1ccnc2cc(Cl)ccc12` has an AUC of 30.1 ng·h/mL (CD-1 mouse; oral, 5 mg/kg, single dose).
`COC1C=COC2(C)Oc3c(C)c(O)c4c(c3C2=O)C2=NC3(CCN(CC(C)C)CC3)NC2=C(NC(=O)C(C)=CC=CC(C)C(O)C(C)C(O)C(C)C(OC(=O)Nc2cnccn2)C1C)C4=O` (stereo not drawn) gave an AUC of 55100 ng·h/mL (female CD-1 mouse; oral, 10 mg/kg).
The AUC of `Nc1ccn(C[C@@H](CO)OCP(=O)(O)OCCCS(=O)(=O)CCCCCCCCCCC2CCC2)c(=O)n1` is reported as 333 ng·h/mL (mouse; intravenous, 3 mg/kg, single dose).
`CCc1nc(N)nc(N)c1C#C[C@H](C)c1cc(-c2cc(C)nc(C)c2)ccc1Cl` gave an AUC of 2600 ng·h/mL (mouse; oral, 5 mg/kg).
For `Cc1cc(O)cc(O)c1C(=O)c1c2c3c(c(O)cc(C)c3oc1=O)C(=O)c1c(O)cc(O)cc1-2`, the AUC was 22700 ng·h/mL (male Kunming mouse; intraperitoneal, 15 mg/kg).
`CCS(=O)(=O)c1ccccc1C(=O)N1CCN(c2nc3ccc(F)cc3s2)C[C@@H]1C` gave an AUC of 1370 ng·h/mL (mouse; intravenous, 3 mg/kg).
With `NC(=O)c1c(F)ccc(OCc2nc3cc(Cl)cnc3s2)c1F` the AUC was 2420 ng·h/mL (mouse; intravenous, 3 mg/kg).
The AUC of `O=C(c1ccccc1)N1C(c2ccc(OCC3CCN(CCCF)C3)cc2)c2ccc(O)cc2CC12CC2` (stereo not drawn) is reported as 2930 ng·h/mL (C57BL/6 mouse; oral, 25 mg/kg).
`N#Cc1nc(N2CCOCC2)nc(N(Cc2ccc(F)cc2)CC2CCCNC2)n1` (stereo not drawn) has an AUC of 1010 ng·h/mL (mouse; intraperitoneal, 10 mg/kg, single dose).

A few entries again:
The AUC of `Nc1ccn(C[C@@H](CO)OCP(=O)(O)OCCCS(=O)(=O)CCCCCCCCCCC2CCC2)c(=O)n1` is reported as 333 ng·h/mL (mouse; intravenous, 3 mg/kg, single dose).
`COC1C=COC2(C)Oc3c(C)c(O)c4c(c3C2=O)C2=NC3(CCN(CC(C)C)CC3)NC2=C(NC(=O)C(C)=CC=CC(C)C(O)C(C)C(O)C(C)C(OC(=O)Nc2cnccn2)C1C)C4=O` (stereo not drawn) gave an AUC of 55100 ng·h/mL (female CD-1 mouse; oral, 10 mg/kg).
